# Measured values of several laboratories.
# Protocols differ between the studies behind these lines.
# TDP1: Tyrosyl-DNA phosphodiesterase 1 (TDP1, Homo sapiens, UniProt Q9NUW8)
# Chain of UniProt Q9NUW8 (whole entry, looked up): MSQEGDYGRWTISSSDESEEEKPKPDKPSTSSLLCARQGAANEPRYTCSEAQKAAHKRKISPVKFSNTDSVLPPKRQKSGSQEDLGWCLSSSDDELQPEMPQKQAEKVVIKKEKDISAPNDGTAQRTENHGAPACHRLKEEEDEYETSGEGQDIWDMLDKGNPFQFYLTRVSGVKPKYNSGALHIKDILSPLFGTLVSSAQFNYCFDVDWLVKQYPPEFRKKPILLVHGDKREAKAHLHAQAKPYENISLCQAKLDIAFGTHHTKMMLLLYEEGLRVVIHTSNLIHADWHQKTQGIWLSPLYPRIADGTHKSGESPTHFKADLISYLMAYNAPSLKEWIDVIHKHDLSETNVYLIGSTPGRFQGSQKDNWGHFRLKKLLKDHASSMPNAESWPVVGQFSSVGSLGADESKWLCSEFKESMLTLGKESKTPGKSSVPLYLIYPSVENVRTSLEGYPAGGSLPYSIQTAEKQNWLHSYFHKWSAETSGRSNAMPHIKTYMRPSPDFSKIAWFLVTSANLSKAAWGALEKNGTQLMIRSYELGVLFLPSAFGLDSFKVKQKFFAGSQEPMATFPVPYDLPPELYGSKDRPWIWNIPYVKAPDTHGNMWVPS
Compound,tested on,assay,system,conditions,endpoint,value
CN(C)C(=O)c1cccc(N2Cc3cn(CC4CC4)nc3C2)c1,HEK293 expressing GluA1 and GluA2,"glutamate excitotoxic cell death, CellTox Green",,with: glutamate,IC50,0.036 µM
NC(=O)c1ccc(-c2ccccc2Cl)c2c3c([nH]c12)CCC(N)C3 (stereo not drawn),RKO,cell growth or viability,,96 h,IC50,0.00442 µM
CCCN1C(=O)/C(=C/C(=O)OCC)S/C1=N\N=C\c1cccc2cc3ccccc3nc12,SK-BR-3,"cell growth or viability, MTT",,48 h,IC50,> 50 µM
NCCOc1cc(NC(=O)c2cc(OCc3cn(Cc4ccc(C(=O)O)cc4)nn3)cc(C(=O)Nc3cc(OCCN)c4ccccc4n3)n2)nc2ccccc12,HT-1080,"cell growth or viability, ATP luminescence",,72 h,IC50,> 40 µM
C/C(=N\NC(N)=S)c1c(O)c2ccccc2oc1=O,human Skin fibroblast,"cell growth or viability, MTT",,48 h,IC50,> 100 µM
Cc1c(C)c2cccnc2c2ncccc12.Cc1ccc2c(Cl)cc(Cl)c([O-])c2n1.Cc1ccc2c(Cl)cc(Cl)c([O-])c2n1.[Co+2],HepG2,"cell growth or viability, MTT",,48 h,IC50,4.12 µM
Cn1ncc(-c2ccc3c(=O)[nH]nc(CN)c3c2)c1-c1c(F)c(Cl)cc(OC2CC2)c1C#N,EFM-19,"cell viability, inhibitor, CellTiter-Glo",,"120 h, baseline-subtracted",IC50,0.29 µM
CC(=O)NCCOCCNC(=O)c1cc(C(=O)N2CCNCCNCCNCC2)c(O)c(C(=O)N2CCNCCNCCNCC2)c1,2C6 normal pancreas,"cell viability, MTT",,24 h,IC50,> 1000 µM
Cc1cc2cc(C(=O)N(Cc3ccc(C(F)(F)F)cn3)[C@H](C)c3ncccn3)ccc2nc1N,DOHH-2,cell growth,,,IC50,0.017 µM
COc1cc(-c2cc(C(C)=O)n3ccccc23)c(OC)cc1CN1CCOCC1,MV4-11,"cell growth or viability, ATP luminescence",,,IC50,5.21 µM
C=CC(=O)N1CCCC(n2c(=O)c3ncccc3n(Cc3ccc(Oc4ccccc4)cc3)c2=O)C1 (stereo not drawn),KI-JK,"cell proliferation, MTT",,72 h,IC50,20 µM
Cc1ccc(Cn2cc3c(n2)CN(c2cccc(C(=O)N(C)C)c2)C3)cc1,HEK293 expressing GluA1 and GluA2,"glutamate excitotoxic cell death, CellTox Green",,with: glutamate,IC50,0.656 µM
COc1cc(-c2cn(C)c(=O)c3cnccc23)c(OC)cc1Cn1ccnc1,MV4-11,"cell growth or viability, ATP luminescence",,,IC50,4.6 µM
CN1CCC(N[C@@H]2CCc3[nH]c4c(C(N)=O)ccc(-c5ccccc5Cl)c4c3C2)CC1,DOHH-2,cell growth or viability,,,IC50,0.0231 µM
O=c1cc(-c2ccccc2)oc2cc(O)c(O)c([O][Ga+][O]c3c(O)c(O)cc4oc(-c5ccccc5)cc(=O)c34)c12,LO2,"cell viability, MTT",,,IC50,> 200 µM
COC1CC(=O)C2C(O)C=CC(O)C2C12Oc1cccc3cccc(c13)O2 (stereo not drawn),OVCAR-3,"cell growth or viability, resazurin",,72 h,IC50,11.1 µM
CN(C)C(=O)c1cccc(N2Cc3cn(Cc4cc(F)cc(F)c4)nc3C2)c1,HEK293 expressing GluA1 and GluA2,"glutamate excitotoxic cell death, CellTox Green",,with: glutamate,IC50,0.009 µM
CC(C)c1ccc(N(C)c2ccc3c(c2)OCC[C@H]3CNc2cnccc2C(=O)O)cc1,SKMEL31,"cell viability, CellTiter-Glo",skin,7 days,IC50,≥ 10 µM
C=CC(=O)N1C[C@H](C)N(c2nc(OC[C@@]34CCCN3C[C@H](F)C4)nc3c(F)c(-c4ccc(F)c5sc(N)c(C#N)c45)c(C(F)(F)F)cc23)C[C@H]1C,Ba/F3 expressing KRAS G12D,cell viability,,72 h,IC50,0.083 µM
CCOc1cncc(-c2ccc(NC(=O)C3(c4ccnc(NS(=O)(=O)C5CC5)n4)CCOCC3)nc2)n1,HEC-1-A,"cell proliferation, CellTiter-Glo",,72 h,IC50,10 µM
O=C(NC1CCCCC1)c1cccc(N2Cc3cn(Cc4ccc(F)cc4)nc3C2)c1,HEK293 expressing GluA1 and GluA2,"glutamate excitotoxic cell death, CellTox Green",,with: glutamate,IC50,0.057 µM
CCn1nc(Cl)c2c1-c1cnc(N)c(c1)O[C@H](C)c1cc(F)ccc1-c1nn(C)cc1C2,Ba/F3 ETV6-TRKB,cell viability,,,IC50,0.128 µM
CN(C)C(=O)c1cccc(N2Cc3cn(Cc4ccc(Cl)cc4)nc3C2)c1,HEK293 expressing GluA1 and GluA2,"glutamate excitotoxic cell death, CellTox Green",,with: glutamate,IC50,0.019 µM
Cc1ccc(C(C=NOCc2ccc3nc(-c4ccccc4)c(Nc4ccc(C(=O)O)cc4)n3c2)=CN(C)C)cc1 (mixture of isomers),TDP1,"enzyme activity, inhibitor",,"100 µM, unpurified compound",inhibition,48.6%
CN(C)C(=O)c1ccnc(N2Cc3cn(Cc4ccc(F)c(Cl)c4)nc3C2)n1,HEK293 expressing GluA1 and GluA2,"glutamate excitotoxic cell death, CellTox Green",,with: glutamate,IC50,0.013 µM
Cc1ccc(C(C)C)cc1.Cc1ccc(C(C)C)cc1.Cc1ccc(C(C)C)cc1.Cc1ccc(C(C)C)cc1.O=S(=O)(O)C(F)(F)F.O=S(=O)(O)C(F)(F)F.O=S(=O)(O)C(F)(F)F.O=S(=O)(O)C(F)(F)F.c1ccc2c3c4ccccc4c(c2c1)-c1cn(nn1)-c1cc[n+](cc1)[Ru-]1[O]c2c4ccccc4c4c5c(c6ccccc6c(c25)=[O+]1)=[O+][Ru-]([O]4)[n+]1ccc(cc1)-n1cc(nn1)-c1c2ccccc2c(c2ccccc12)-c1cn(nn1)-c1cc[n+](cc1)[Ru-]1[O]c2c4ccccc4c4c5c(c6ccccc6c(c25)=[O+]1)=[O+][Ru-]([O]4)[n+]1ccc(cc1)-n1cc-3nn1,AGS,"cell growth or viability, MTT",,24 h,IC50,5.4 µM
CCN(CC)C(=O)c1cncc(N2Cc3cn(Cc4ccc(F)cc4)nc3C2)n1,HEK293 expressing GluA1 and GluA2,"glutamate excitotoxic cell death, CellTox Green",,with: glutamate,IC50,0.25 µM
O=C(O)c1ccc(Nc2c(-c3ccccc3)nc3ccc(CON=CC4=C5NC(=O)c6ccccc6N5CC4)cn23)cc1,TDP1,"enzyme activity, inhibitor",,"100 µM, unpurified compound",inhibition,29.7%
CC(C)=CC1OC(C)(C)C2C=C3C(=O)C(Cl)=CC(O)C3C3C(O)C4OC4C(=O)C132 (stereo not drawn),KYSE-450,"cell growth or viability, MTS",,,IC50,3.78 µM
CNS(=O)(=O)Nc1nccc(Cc2c(C)c3ccc(Oc4ncccc4F)cc3oc2=O)c1F,LS-411N,cell viability,,7 days,IC50,0.124 µM
CC(=O)OC[C@H]1O[C@@H](Oc2ccc(C#[C][Pt+])cc2)[C@H](OC(C)=O)[C@@H](OC(C)=O)[C@@H]1OC(C)=O.O=S(=O)([O-])C(F)(F)F.c1ccc(-c2cccc(-c3ccccn3)n2)nc1,CCD 19Lu,cell growth or viability,,48 h,IC50,> 100 µM
Fc1ccc(Cn2ncc3c2CN(c2nccc(NC4CC4)n2)C3)cc1,HEK293 expressing GluA1 and GluA2,"glutamate excitotoxic cell death, CellTox Green",,with: glutamate,IC50,4 µM
CN1CC[C@@H](COc2cnc(C#N)cc2-c2ccn3nc(NC(=O)C4CC4)cc3c2)C1,wild-type mouse BMDC,TNF release,,"4 h, with: LPS",IC50,0.85 µM

# Repeated from above:
Compound,tested on,assay,system,conditions,endpoint,value
Cc1ccc(C(C=NOCc2ccc3nc(-c4ccccc4)c(Nc4ccc(C(=O)O)cc4)n3c2)=CN(C)C)cc1 (mixture of isomers),TDP1,"enzyme activity, inhibitor",,"100 µM, unpurified compound",inhibition,48.6%
CN(C)C(=O)c1ccnc(N2Cc3cn(Cc4ccc(F)c(Cl)c4)nc3C2)n1,HEK293 expressing GluA1 and GluA2,"glutamate excitotoxic cell death, CellTox Green",,with: glutamate,IC50,0.013 µM
